Measurements collected from several papers.
Each numbered part is a random draw from the data of one study; scales do not carry over between parts.
Chain of UniProt Q00534 (whole entry, looked up): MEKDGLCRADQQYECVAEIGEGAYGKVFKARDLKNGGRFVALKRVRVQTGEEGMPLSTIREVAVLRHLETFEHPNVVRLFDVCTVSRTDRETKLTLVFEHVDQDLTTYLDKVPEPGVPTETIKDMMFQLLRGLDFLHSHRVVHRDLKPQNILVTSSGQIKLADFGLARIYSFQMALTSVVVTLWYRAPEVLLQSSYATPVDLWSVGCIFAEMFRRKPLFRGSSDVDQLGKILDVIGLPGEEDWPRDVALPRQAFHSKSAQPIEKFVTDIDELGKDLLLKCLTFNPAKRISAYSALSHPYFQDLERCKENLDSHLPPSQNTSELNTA

Block 1 — method: RNA Bind-n-Seq; molecule type: RNA; matrix: in vitro; tested at: 365 nM; reference: no-protein control; reading: higher = stronger binding
Target: RNA binding protein fox-1 homolog 2, RRM domain, GST-SBP tag (RBFOX2, Homo sapiens, UniProt O43251-10, residues 100-194)
Setting: natural RNA segment, single round, ends assumed
Sequence | RBNS enrichment (R)
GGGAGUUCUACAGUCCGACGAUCUUGCGGUACCAGAAAGCAGCGAGAGCGAGACCUGGGAGCCAGGGCAGGGGUGGCUGACCCCAUGCUCAGCCUCUAGGGGACGGCAGGCCAUCAGGCUGGGGGCUGUGCUAUGGAAUUCUCGGGUGCCAA | 0.586
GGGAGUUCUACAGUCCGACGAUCGACUGGCCAUUAUGCAUCCCCUUUUCUUUCCAGUGCCCAGUAUGCUGUUUUGAGGUGUCAAAUACAAAUAAAUCUGGGCUUAGGGAAGGAGAGACCUUAUUCCAAAGCACUGGAAUUCUCGGGUGCCAA | 0.414
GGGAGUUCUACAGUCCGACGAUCCUAAGAAGGGAUUUUUGAAUAUGCUAUCUACCUGGAAUCUCUCUCUCAACAAAAGGUAUAUGCCUUCAGGAAUGAUAUAAUCUGUCCCAUUUUCGAGGCUCCUUAUAAGGUGGAAUUCUCGGGUGCCAA | 0.445
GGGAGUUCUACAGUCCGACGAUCAACUCAUUGUUCUAGUGAAGAUUAUGUUAAGCAAGCCUAAAAAAAGAUGACAACCAGUUCAUACACAGAUUUCCCAUUAUAUUGUGUAUACACACACACAGGGACAUCAAUGGAAUUCUCGGGUGCCAA | 0.376
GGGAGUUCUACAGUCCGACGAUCUGGGCCCAUGGGGCUGGACAGGAUGAGGUCACCAUUGGGCCUGAGGGCCAGGGGUCUCCAGCAUGACUUGUUUGCUCUCCCUCCCCCACCCUCACUCCUACCUCCCAUAGUGGAAUUCUCGGGUGCCAA | 5.76
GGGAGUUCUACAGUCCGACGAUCGUAGCAGCUUCAGCAUGGAAGAGGAGUCUGAUCAGGCCUCACUCCUCCCCCUGGAUGAGACCCUGCCUUUUUUCCCUACCCUCCUGUGAGACUGUCCUGUCCAGGAAAUCUGGAAUUCUCGGGUGCCAA | 1.03
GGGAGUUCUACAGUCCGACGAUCCGUUUAUAUUGUAGCAGUUACAGCUCUGUAGUUUAUGAUGCAAAUCUGCCAAGAGAGAUGUAUGUGUCACUGCAUGGCUUCUGAAAGCAGGAUGAAUUUUCUGCAGCUGUUGGAAUUCUCGGGUGCCAA | 0.431
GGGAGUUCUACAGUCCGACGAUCGGCCAGGCUGGACAAAUUCCUGAGGCACAACUUGGCUUCAGUUCAGAUUUCAAGCUGUGUUGGUGUUGGGACCAGCAGAAGGCAAACGUCCAGCCAACACACAGGACUGUUGGAAUUCUCGGGUGCCAA | 0.387

Block 2 — method: RNA Bind-n-Seq; molecule type: RNA; matrix: in vitro; tested at: not given; reference: input RNA pool; reading: higher = stronger binding
Target: RING finger protein unkempt homolog, zinc fingers 1-6, GST-SBP tag (UNK, Homo sapiens, UniProt Q9C0B0, residues 30-357)
Setting: RNA with constant flanks, human-mouse chimeric sites, ends assumed
Construct (chain): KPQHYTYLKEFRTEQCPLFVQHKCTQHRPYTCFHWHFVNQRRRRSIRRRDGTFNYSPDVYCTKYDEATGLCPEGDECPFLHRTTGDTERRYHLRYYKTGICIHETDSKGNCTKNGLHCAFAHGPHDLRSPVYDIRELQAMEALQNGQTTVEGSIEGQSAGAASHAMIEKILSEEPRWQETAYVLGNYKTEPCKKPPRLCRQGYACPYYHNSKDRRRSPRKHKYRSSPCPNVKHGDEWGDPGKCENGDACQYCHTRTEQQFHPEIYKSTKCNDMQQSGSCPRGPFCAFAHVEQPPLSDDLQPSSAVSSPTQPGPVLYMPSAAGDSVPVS
Sequence | bound/input enrichment [ratio]
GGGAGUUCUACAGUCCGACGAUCUCAUUUUUCUCUUUUCUUUCUUUCCUUAAAAGCCUAAAGAUUAGACUGGUUGUAAGAAAAACAGAAGCCAUGUUUCGAAGACCUGUGUUACAGGUAUUUCGUCAGUUUGUAAGACAUGAGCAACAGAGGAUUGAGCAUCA | 0.211
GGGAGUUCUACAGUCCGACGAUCGAACCUGCUCUCUCUGAUGAAGAUGAGGAAGACAAUGAUGAUGUUGAACCCAUUUCUGAAUUUCGAUUUGUGCCCAGUGAUAAGUCAGCAUUGGAGGCAAUGUUCACAGCAAUGUGUGAGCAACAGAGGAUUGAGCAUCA | 0.211
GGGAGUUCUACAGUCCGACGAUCUUCAAAGAAAAGGGCAGCUGUGUCAUUUCAUAAGUAACUCUGGGGGAGGGAAAUUCUAACUAGUUUGUUUUAGUUUUCCCAAAUGAAGCCAAAGUGUGUGUUGAAGAACUGAGAAAAAAUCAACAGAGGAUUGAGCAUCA | 0.758
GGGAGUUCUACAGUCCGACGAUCCAGCCUCAGAGCCCAGACUUCCUGGAUAUUACCAACCCCAAAGCCGUAUUAGAAAAUGCAUUGAGAAACUUCGCCUGUCUGACGACUGGAGAUGUGAUUGCCAUCAACUACAAUGAGAAGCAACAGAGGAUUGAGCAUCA | 0.621
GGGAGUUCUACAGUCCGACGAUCGCGGCAGAAUCAUGGAGGACAUAAUGCACUUGCCCAGAGCGCGCGUCAACGCCGGCAUGUUACCACAGUAUAUCGACCGGCCCGUGUGCUUCGUGGGGAAGCUGGAAAAGAUUCAUCCCACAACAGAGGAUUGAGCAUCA | 0.0934
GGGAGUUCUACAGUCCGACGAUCAUCAAAUACUUUGGGGACAUCAUUAGUGUGGGACAGAGAUUGUUGCAAGGAGCUCGGAUCUUAGGGAUUCCUGUUAUCAUAACGGAACAAUACCCCAAAGGACUUGGCAGCACCGUUCAACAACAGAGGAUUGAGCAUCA | 0.235
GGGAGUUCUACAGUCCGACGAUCAAAGAGUGGAUAGAGUGUGCACAUGGAAUCGGUGGGACCCGGGCGAAAAAGGAGUGCAAGAUAGAGUUCGAUGACUUCGAAGAGUGCUUGCUUCGGUACAAAACGAUGAGGCGAAUGCAUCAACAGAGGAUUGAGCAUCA | 0.328
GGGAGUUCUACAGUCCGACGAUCCUUUUUGAAUCUUUCAAGAGUUUUGAAGGUCUCUUUUAUUUUCUGGGGUCCAUUGUUAACUUUAGUCAGGACCCAGAUGUGCACUUUAAAUAUAUUCAGGCGGCUUGCAAGACUGGGCAACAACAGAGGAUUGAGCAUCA | 0.783

Block 3 — method: RNA Bind-n-Seq; molecule type: RNA; matrix: in vitro; tested at: 20 nM; setting: 6-mer, flanks averaged, single round; added: 150 mM KCl; reference: input library; reading: higher = stronger binding
Target: TAR DNA-binding protein 43, full length, His tag (TARDBP, Homo sapiens, UniProt Q13148, residues 1-414)
Sequence | 6-mer enrichment (R)
CUAUGU | 0.647
GGGGGC | 8.16
GAUCAA | 0.661
GUUACA | 0.643
CGCCAC | 0.719
AUGCAA | 0.702
AAAUCG | 0.599
GGCUGC | 1.51

Mixed results
SMILES | target | assay | conditions | how to read | quantity | value
Nc1nc(Nc2ccc(S(N)(=O)=O)cc2)nn1C(=S)Nc1c(F)cccc1F | Cyclin-dependent kinase 6, with cyclin D3 (CDK6, Homo sapiens, UniProt Q00534) | enzyme activity, inhibitor | 0.5 µM | reference: control | remaining activity | 7.69%

Repeated from above (block 1):
Sequence | RBNS enrichment (R)
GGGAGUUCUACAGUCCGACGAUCCGUUUAUAUUGUAGCAGUUACAGCUCUGUAGUUUAUGAUGCAAAUCUGCCAAGAGAGAUGUAUGUGUCACUGCAUGGCUUCUGAAAGCAGGAUGAAUUUUCUGCAGCUGUUGGAAUUCUCGGGUGCCAA | 0.431
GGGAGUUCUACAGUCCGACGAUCGGCCAGGCUGGACAAAUUCCUGAGGCACAACUUGGCUUCAGUUCAGAUUUCAAGCUGUGUUGGUGUUGGGACCAGCAGAAGGCAAACGUCCAGCCAACACACAGGACUGUUGGAAUUCUCGGGUGCCAA | 0.387
